Measured values from different studies.
Numbered parts are unrelated; each lists some results of a single study. Positions count from the first letter of the parent shown.

Set 1
Target: RING finger protein unkempt homolog, zinc fingers 1-6, GST-SBP tag (UNK, Homo sapiens, UniProt Q9C0B0, residues 30-357)
Chain of UniProt Q9C0B0 (30-357, looked up): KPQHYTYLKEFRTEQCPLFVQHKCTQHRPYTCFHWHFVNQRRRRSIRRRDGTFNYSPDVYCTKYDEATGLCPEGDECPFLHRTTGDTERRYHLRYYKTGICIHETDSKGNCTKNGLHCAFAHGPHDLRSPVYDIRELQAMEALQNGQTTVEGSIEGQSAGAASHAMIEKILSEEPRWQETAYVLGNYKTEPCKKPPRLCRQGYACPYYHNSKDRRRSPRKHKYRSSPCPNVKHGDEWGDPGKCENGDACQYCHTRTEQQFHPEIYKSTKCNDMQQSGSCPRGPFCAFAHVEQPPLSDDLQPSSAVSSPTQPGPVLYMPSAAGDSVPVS
Method: RNA Bind-n-Seq
Molecule type: RNA
Sample: in vitro
Tested at: not given
Notes: RNA with constant flanks, ends assumed
Relative to: input RNA pool
Reading: higher = stronger binding
`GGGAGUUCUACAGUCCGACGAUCAGAGAGAGAAAAACUAGUAAAGGCUGAAAGAAAAUUCAUUGAAGAUAGAGUUAAAAAAAUCACCGAGCUGAAAAAGAAAGUCUGUGGUGACUCAGAUAAAGGAUUUGUCGUUAUUAAUCACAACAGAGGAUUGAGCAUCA` gave a bound/input enrichment of 2.44 ratio.
The bound/input enrichment of `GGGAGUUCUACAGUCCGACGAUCAGAAUGUCCCACUUGCUGUCUCUUAGAGGCUGAGCUUCAUUUCUAUGAGCAAAGAGCUCAUUCCGCAAUGUAGUUAUUUCAGUAUUUAUUUCUAUUAUGGAAUCCCUGGGGUUCAGAAUGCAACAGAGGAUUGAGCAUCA` is reported as 0.745 ratio.
`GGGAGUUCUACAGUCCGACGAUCUUGUUUAUGGGAGAUUAUGUUGACAGAGGAUAUUAUUCAGUUGAAACAGUUACACUGCUUGCCGCUCUUAAGGUUCGUUACCGUGAACGCAUCACCAUUCUUCGAGGGAAUCAUGAGAGCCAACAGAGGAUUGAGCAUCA` gave a bound/input enrichment of 0.257 ratio.
`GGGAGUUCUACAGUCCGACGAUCGAGUUUCUUGCUUUGACAUUCAGUGAAAAUGAGAAAAACGCUGCGUACUAUGCGUCCGCAACCGUGCAUGGAGCGGCCGCUUAUCUCCCAGACUUCUUGGACUACUUUGCUUUUAAUUUUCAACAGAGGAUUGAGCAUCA` gave a bound/input enrichment of 0.101 ratio.
`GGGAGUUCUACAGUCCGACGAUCAAACUGACAGAAGUUGACAAUUAUCAUUUUUACUCAUCUAUACCCUCAAUGGAAAAAGAAGCCGGUAACUGUAGUCCACAUUUUCUUAAUGCUUUUGAGGAUUCCUUCAGCAGCAUCCUCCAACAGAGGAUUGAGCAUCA` gave a bound/input enrichment of 0.448 ratio.
For `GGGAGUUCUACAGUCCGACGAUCAAACAUGAAUGUCAAGCAAAUGGACCAGAAGAUCUCAAUCGGGCUUGUAUUGCUGAAAAGUCCGGUGGAUCCUUAAUUGUAGCCUUUGAAGGAUGCCCUGUGUAGAUUAUUCAGUGCCACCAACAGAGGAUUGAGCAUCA`, the bound/input enrichment was 0.216 ratio.
`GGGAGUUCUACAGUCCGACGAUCAUUAAGCAGAGGACUAAGUUGGAGCUUAAAGCCAAGGAUUUACAAGAUGAACUAGCAGGCAACCGUGAACAAAGGAAACGUUUAUUAAAAGAGAGGCAGAAGCUGCUUGAAAAAAUAGAACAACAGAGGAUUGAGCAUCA` has a bound/input enrichment of 0.612 ratio.
`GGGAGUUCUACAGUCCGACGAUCAUAGAACCAAGUAGCAAUAAAGAUGAUGAUUUUCUUGAAAAAAAUGGAGCUGAUGAAAAAUCCGAGCAAAUUCAGAGUAAAGACUCAUUGGAUGAGAAAAAUAAAGCUGAUAAUAAUAUUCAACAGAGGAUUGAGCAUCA` has a bound/input enrichment of 6.35 ratio.
`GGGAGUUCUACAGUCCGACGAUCACAGCCCCGUGGGUGUGUGGGAGGCCGGGCGCUCUGGGGUCUGUCUGUCAGUGCAAUCGUUCCGUGUUUUUUCAGUGGGGCGGGGCGGGAAGCGGGUGGGACCGGGCAGCCAGUUCUCAACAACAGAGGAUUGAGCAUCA` has a bound/input enrichment of 0.368 ratio.
For `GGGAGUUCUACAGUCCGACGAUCCUGGCAAUCCAGUGCCGUGCUGACCAGUCUUUCACUUCUCCACCCCCGAGAGAUUUCUUAUCCGAUAUUGCACGACAAAGAAAUCAAACCCCUUUGCCACUGAUCAAGCCAUAUUCAGGUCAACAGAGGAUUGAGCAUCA`, the bound/input enrichment was 0.161 ratio.

Set 2
Target: Ras GTPase-activating protein-binding protein 1, full length (G3BP1, Homo sapiens, UniProt Q13283)
Chain of UniProt Q13283 (whole entry, looked up): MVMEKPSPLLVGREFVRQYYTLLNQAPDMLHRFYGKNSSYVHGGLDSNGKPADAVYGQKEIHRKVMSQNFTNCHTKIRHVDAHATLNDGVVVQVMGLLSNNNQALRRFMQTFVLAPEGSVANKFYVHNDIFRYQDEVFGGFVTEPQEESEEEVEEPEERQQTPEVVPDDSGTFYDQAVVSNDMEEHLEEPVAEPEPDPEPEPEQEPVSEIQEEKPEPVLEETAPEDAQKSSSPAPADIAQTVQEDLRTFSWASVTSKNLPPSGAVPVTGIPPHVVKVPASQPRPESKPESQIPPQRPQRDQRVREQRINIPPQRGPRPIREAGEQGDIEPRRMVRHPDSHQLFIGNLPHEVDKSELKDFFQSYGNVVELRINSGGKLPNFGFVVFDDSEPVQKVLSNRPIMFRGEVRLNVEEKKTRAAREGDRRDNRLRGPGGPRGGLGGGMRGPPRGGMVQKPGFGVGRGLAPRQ
Method: RNA Bind-n-Seq
Molecule type: RNA
Sample: in vitro
Tested at: 200 nM
Notes: whole 134-nt RNA, ends assumed
Together with: 150 mM LiCl
Relative to: input library
Reading: higher = stronger binding
Each molecule: 7-deaza-guanosine replaces G
With `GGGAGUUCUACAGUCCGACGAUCCACAGACAACACGCACCCACACAGACACAGAGGGAAGGGGUUGGGAUGGGGACAGGGUGCAUAGCAGGGCGGGGUAGGACCCCAGCCCCUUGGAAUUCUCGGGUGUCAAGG` the log2 enrichment was -0.0445.
The log2 enrichment of `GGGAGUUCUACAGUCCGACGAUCUGUGUUGUGCUCAUUACCAGUGCAGCGACUGCCGUCCCAGGGUGACUCUGAGUUGUCCUUUAUCGUGAGCUAGCAAUGGCUAGCGAAGACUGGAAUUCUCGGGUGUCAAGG` is reported as -1.6.
`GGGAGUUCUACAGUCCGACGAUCUGGGAGGUGGAUUUUGUUUAUUUUUUUAGCUCAUUUCCAGGGGUGGGAAUUUUUUGUUAAUAUGUGUCAUGAAUAAAGUUGUUUUUGAAAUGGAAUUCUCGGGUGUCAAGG` gave a log2 enrichment of -0.497.
`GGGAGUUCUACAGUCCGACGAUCGUCCUGUGCUACACAUCGUAUGUACCGAAUCGGGAAAAAGGGAAAAAAAGGGUUUGGGAAAGUAUUAUGUUACGCCGUUCGGAUCUGCACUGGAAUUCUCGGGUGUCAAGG` has a log2 enrichment of -2.18.
The log2 enrichment of `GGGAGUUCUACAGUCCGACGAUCGCAGGAAGUAAAAACAAAUGGAAAUGCUUCGGAUAGUGGGAGGGGUGGGGGUUGCUAAGGAAAGGGUGGGAUGGGAGUGGGUAAAGAGUUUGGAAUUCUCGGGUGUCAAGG` is reported as -0.288.
For `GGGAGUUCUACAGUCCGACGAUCUUCCUCAAGUCCUGUGCUACACAUCGUAUGUACCGAAUCGGUGGUGGUGGGAAAGUAUUAUGUUACGCCGUUCGGAUCUGCACUUCCAGCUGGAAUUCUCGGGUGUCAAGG`, the log2 enrichment was 0.8.
`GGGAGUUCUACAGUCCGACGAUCCUCAAGUCCUGUGCUACACAUCGUAUGUACCGAAUCGGGGAAGGAAGGGAAGGGAAAGUAUUAUGUUACGCCGUUCGGAUCUGCACUUCCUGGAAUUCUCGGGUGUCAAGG` gave a log2 enrichment of -0.332.
`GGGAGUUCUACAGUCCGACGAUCAAGUCCUGUGCUACACAUCGUAUGUACCGAAUCGGUGGAAAAAAAGGAAAAAAAGGAAAGUAUUAUGUUACGCCGUUCGGAUCUGCACUUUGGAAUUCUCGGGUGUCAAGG` gave a log2 enrichment of -1.26.
`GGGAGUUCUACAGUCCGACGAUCUGGGAGGUGGAUUUUGUUUAUUUUUUUAGCUCAUUUCCAGGGGUGGGAAUUUUUUUUUAAUAUGUGUCAUGAAUAGAGUUGUUUUUGAAAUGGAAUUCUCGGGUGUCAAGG` has a log2 enrichment of 0.129.
For `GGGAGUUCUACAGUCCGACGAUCACCAUGCAGGUGGGCAUCUUUGGGAAGAAAGGCAAGGGGGGGAUAGGGAGGGGGGUAACACUUUGGGAACAGGUGGUCCCAGGUCGUUUCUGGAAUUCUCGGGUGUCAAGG`, the log2 enrichment was 0.34.
The log2 enrichment of `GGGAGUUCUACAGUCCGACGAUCUAGUAACAGGGGUGAAGAUGCCUUUUGUGAUCCUGAAGAUGAAUGGGAACCCGACAUUACAGAUGCACCAGUUUCUUCACUUUCUAGAAGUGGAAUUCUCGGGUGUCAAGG` is reported as -2.69.

Set 3
Target: CCND2, cyclin fold, Cln2 fusion (human)
Method: yeast growth competition, sequencing
Sample: yeast
Notes: weak parent motif
Relative to: not given
Reading: higher = stronger binding
Starting sequence: RP1L1 docking peptide (human); TLGLGPLSFTLED
`TLGAGPLSFTLED [L4A]` — result for “normalised enrichment score”: 0.176.
`TLGLGPLSATLED [F9A]` — result for “normalised enrichment score”: -0.0192.
For `TLGLGPLSFTLEA [D13A]`, “normalised enrichment score” read -0.00563.
Under “normalised enrichment score”, `TLGLGPASFTLED [L7A]` is recorded as -0.00996.
For `TLGLGPLSFALED [T10A]`, “normalised enrichment score” read 0.472.
For `TAGLGPLSFTLED [L2A]`, “normalised enrichment score” read -0.104.
`TLGLGPLAFTLED [S8A]`: “normalised enrichment score” 0.0242.

Set 4
Molecule: PhoQ, residues 284 288 289 292 302 303 AMDMFI
Method: Sort-seq
Item: YFP reporter
Sample: E. coli
Notes: PhoQ-PhoP variant library
Together with: 10 µM Mg2+
Relative to: high Mg2+ state
Reading: higher = stronger signaling
For PhoP, residues 12 14 15 18 19 LHTVL (Escherichia coli, UniProt P23836): fold induction read 0.858.
For PhoP, residues 12 14 15 18 19 TQAML (Escherichia coli, UniProt P23836): fold induction read 0.651.
For PhoP, residues 12 14 15 18 19 NQCAL (Escherichia coli, UniProt P23836): fold induction read 0.851.

Set 5
Target: Histone acetyltransferase KAT6A, both winged helices, GST fusion (KAT6A, Homo sapiens, UniProt Q92794, residues 1-181)
Method: protein binding microarray
Molecule type: double-stranded DNA, one strand shown
Sample: in vitro
Tested at: not given
Notes: 8-mer, flanks averaged, mean of 2 arrays, mostly near background
Relative to: not given
Reading: higher = stronger binding
Construct (chain): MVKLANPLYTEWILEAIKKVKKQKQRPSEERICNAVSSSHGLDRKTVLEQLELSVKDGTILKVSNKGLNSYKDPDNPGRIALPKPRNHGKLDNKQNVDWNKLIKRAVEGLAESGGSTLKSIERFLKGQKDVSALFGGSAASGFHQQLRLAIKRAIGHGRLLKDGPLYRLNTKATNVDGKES
The E-score of `GGAAGATA` is reported as -0.00668.
For `ACGCACGA`, the E-score was 0.13.
For `ACGGTCGA`, the E-score was 0.163.
The E-score of `CAAACCGC` is reported as 0.178.
For `AGAGCTAA`, the E-score was -0.262.
For `CGAGCCCC`, the E-score was -0.17.
`ACGGGCCT` gave an E-score of 0.234.
With `CCAAACTA` the E-score was -0.157.
With `CCTGGGCA` the E-score was -0.204.
`GGCAGACC` gave an E-score of 0.0215.
The E-score of `CCCATACC` is reported as -0.0534.
With `ATCCGAGG` the E-score was -0.056.
`GGCTTACA` has an E-score of 0.00368.
`CTCCCACC` gave an E-score of -0.177.
For `AGCTGGCG`, the E-score was 0.0247.
The E-score of `TAGTGTAA` is reported as -0.0274.
With `CAATATGG` the E-score was -0.163.
The E-score of `CGAGACCA` is reported as -0.15.
With `ATAAAGAA` the E-score was -0.14.
The E-score of `ACGTAACT` is reported as -0.0558.
The E-score of `GCAAAAGC` is reported as 0.0409.
`CCATGGCC` gave an E-score of -0.121.
`CTGTTAGC` gave an E-score of -0.128.
With `ACGCGTGC` the E-score was 0.291.
`GAGGCAGC` has an E-score of -0.0614.

Further values, each from its own experiment
Method: cross-linking MS
`HNRNPA1 (Homo sapiens, UniProt P09651)` — result for interaction screen: “cross-linked” (HNRNPH1 (Homo sapiens, UniProt P31943); hits only).
`AP3D1 (Homo sapiens, UniProt O14617)` — result for interaction screen: “cross-linked” (AP3S1 (Homo sapiens, UniProt Q92572); hits only).
`GARS1 (Homo sapiens, UniProt P41250)`: cross-linked residues “K318 to K678” (CHD7 (Homo sapiens, UniProt Q9P2D1); cell fractions; together with: DSSO).

For quick reference, copied from above (set 5):
With `CCTGGGCA` the E-score was -0.204.
`GGCAGACC` gave an E-score of 0.0215.
The E-score of `CCCATACC` is reported as -0.0534.
With `ATCCGAGG` the E-score was -0.056.
`GGCTTACA` has an E-score of 0.00368.
`CTCCCACC` gave an E-score of -0.177.
For `AGCTGGCG`, the E-score was 0.0247.
The E-score of `TAGTGTAA` is reported as -0.0274.
With `CAATATGG` the E-score was -0.163.
